# Experimental data of several laboratories.
# Lines come from different studies, so protocols differ. Numbers after ± are the reported error.
Compound,test system,setting,measurement,value
Nc1nc2c(ncn2CC(=O)N[C@@H](Cc2ccccc2)C(=O)N[C@@H](Cc2ccccc2)C(=O)N[C@H]2C(O)O[C@H](CO)[C@@H](O)[C@@H]2O)c(=O)[nH]1 (some centres unmarked),water,"3.0 wt%, pH-triggered gelation",pH of hydrogelation,~4
C[N+](C)(C)CCO.O=C([O-])[C@@H](O)Cc1ccccc1,water,concentration not given,pH,8.78 ± 1.4
Nc1ccn(CC(=O)N[C@@H](Cc2ccccc2)C(=O)N[C@@H](Cc2ccccc2)C(=O)N[C@H]2C(O)O[C@H](CO)[C@@H](O)[C@@H]2O)c(=O)n1 (some centres unmarked),water,"3.0 wt%, pH-triggered gelation",pH of hydrogelation,~7.5
O=C([O-])c1ccc(P(c2ccccc2)c2ccccc2)cc1.O=C([O-])c1ccc(P(c2ccccc2)c2ccccc2)cc1.[Ti+4].c1cc[cH-]c1.c1cc[cH-]c1,DMSO/water 1:99,5 x 10 µM,pH,5.32
COC(=O)[C@H](CSSC[C@H](NC(=O)[C@H](Cc1ccccc1)NC(=O)[C@H](Cc1ccccc1)NC(=O)OC(C)(C)C)C(=O)OC)NC(=O)[C@H](Cc1ccccc1)NC(=O)[C@H](Cc1ccccc1)NC(=O)OC(C)(C)C,aqueous solution,pH range 2 to 12,pH of maximum emission,7
Cn1c(=O)c2c(nc(N3CCNCC3)n2C)n(C)c1=O,water,"10 mM, 25 °C",pH,~12.5
Cc1ccc(C(C)C)cc1.O=C(N=P(c1ccccc1)(c1ccccc1)c1ccccc1)c1ccccn1.[Cl-].[Cl-].[Ru+2],water,5 × 10 µM,pH,5.76
C[N+](C)(C)C[C@@H](O)CC(=O)O.O=C([O-])[C@@H](O)Cc1ccccc1,water,concentration not given,pH,3.87 ± 0.4
